Assay results from different studies.
Numbered parts are unrelated; each lists some results of a single study.

Set 1
Target: Histone acetyltransferase KAT6A, winged helix 1, GST fusion (KAT6A, Homo sapiens, UniProt Q92794, residues 1-85)
Method: protein binding microarray
Form: double-stranded DNA, one strand shown
Sample: in vitro
Concentration: not given
Notes: 8-mer, flanks averaged, mean of 2 arrays, mostly near background
Relative to: not given
Direction: higher = stronger binding
Endpoint: E-score
Target sequence (chain): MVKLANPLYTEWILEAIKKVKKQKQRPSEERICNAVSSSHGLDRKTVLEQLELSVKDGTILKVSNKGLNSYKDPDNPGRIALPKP
CTCTTCGA: 0.0815
CTCATGAA: 0.000335
CCGCTAAG: 0.354
GGGCATAA: -0.142
CCTAGGCG: 0.0654
AAGACGTC: -0.0207

Set 2
Target: Interferon regulatory factor 7, full length, phosphomimetic (IRF7, Homo sapiens, UniProt Q92985, residues 1-503, S471D/S472D/S475D/S476D/S477D/S483D/S484D/S487D)
Chain of UniProt Q92985 (whole entry, unmodified, looked up): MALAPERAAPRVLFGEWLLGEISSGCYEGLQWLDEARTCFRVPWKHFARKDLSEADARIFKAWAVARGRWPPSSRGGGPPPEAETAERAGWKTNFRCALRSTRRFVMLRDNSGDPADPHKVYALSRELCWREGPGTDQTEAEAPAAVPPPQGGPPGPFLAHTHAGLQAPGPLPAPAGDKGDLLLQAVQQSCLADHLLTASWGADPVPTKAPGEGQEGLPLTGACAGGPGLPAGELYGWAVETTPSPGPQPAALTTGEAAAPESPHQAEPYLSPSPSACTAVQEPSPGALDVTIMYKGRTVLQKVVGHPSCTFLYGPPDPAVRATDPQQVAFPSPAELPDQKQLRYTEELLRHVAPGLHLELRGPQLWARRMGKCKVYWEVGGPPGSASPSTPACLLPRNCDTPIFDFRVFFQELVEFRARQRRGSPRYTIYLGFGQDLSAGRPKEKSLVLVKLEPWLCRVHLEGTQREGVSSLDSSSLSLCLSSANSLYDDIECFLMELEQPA
Method: protein-binding microarray
Form: double-stranded DNA, one strand shown
Sample: in vitro
Concentration: 2200 nM top
Notes: 60-bp whole probe
With: salmon DNA 0.4 mg/ml
Relative to: random background probes
Direction: higher = stronger binding
Endpoint: fitted relative affinity
All sequences stand within: GCCTAGCAC … GTCTTGATTCGCTTGACGCTGCTG
TCATTTCTCTGCTACCCTACTGTGCTA: 2.81 z-score
GACGATATCAGACTCGAGACGTGCTAG: 0.19 z-score
CATCATTGCTTTCTCTTTCAGTGCTAG: 4.6 z-score
TTAGAACTGAGTTTCTATTAGTGCTAG: 0.817 z-score
GTCGGACTGCTTTTCCTGACGTGCTAG: 1.16 z-score
GACGACATCAGTATCGAGACGTGCTAG: 0.0945 z-score

Set 3
Target: Prothrombin, mature alpha-thrombin (F2, Homo sapiens, UniProt P00734)
Method: aptamer microarray, sandwich
Form: DNA with 2'F-ANA
Sample: in vitro
Concentration: 200 nM
Notes: whole 15-mer aptamer, many near background
With: Cy3 exosite-II aptamer, 400 nM
Direction: higher = stronger binding
Endpoint: mean fluorescence intensity
GGTTGGTGTGGTTGG (2'F-ANA at 1 2 6 8 9 11 13 15): 119 a.u.
GGTTGGTGTGGTTGG (2'F-ANA at 1 2 6 11 14): 50.8 a.u.
GGTTGGTGTGGTTGG (2'F-ANA at 1 2 5 8 9 11 12 13 14): 46 a.u.
GGTTGGTGTGGTTGG (2'F-ANA at 4 7 12 13 14): 125 a.u.

Other studies, line by line
PhoQ, residues 284 288 289 292 302 303 TYGVAM  fold induction (PhoP, residues 12 14 15 18 19 DLLYY (Escherichia coli, UniProt P23836); Sort-seq, measured: YFP reporter; E. coli; PhoQ-PhoP variant library, with: 10 µM Mg2+; relative to: high Mg2+ state, higher = stronger signaling): 0.663

Repeated from above (set 2):
GTCGGACTGCTTTTCCTGACGTGCTAG: 1.16 z-score
